{"data": "Measured values pooled from the literature", "note": "Every numbered part comes from another study and shows a few of its results, in no order."}
{"data": "Set 1", "target": "RNA binding protein fox-1 homolog 2, RRM domain, GST-SBP tag (RBFOX2, Homo sapiens, UniProt O43251-10, residues 100-194)", "method": "RNA Bind-n-Seq", "form": "RNA", "medium": "in vitro", "concentration": "365 nM", "notes": "natural RNA segment, single round, ends assumed", "reference": "no-protein control", "reading": "higher = stronger binding", "Target sequence (chain)": "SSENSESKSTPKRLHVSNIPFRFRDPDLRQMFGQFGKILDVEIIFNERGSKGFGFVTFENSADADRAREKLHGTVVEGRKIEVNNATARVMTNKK"}
{"Sequence": "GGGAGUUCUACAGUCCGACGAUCACCCCCGAGGUCUUCCUUGAACAUCAGGCUUCCAGGCCCCGUUAUCUUCGCCCCAGGAAGGGUGCAUGGGCUCCCACUUUAAUUUUUCUCUUCCAAGUCUCCAGAUUCUGUGGAAUUCUCGGGUGCCAA", "RBNS enrichment (R)": 1.1}
{"Sequence": "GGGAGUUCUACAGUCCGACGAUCCCUCCACCCCUGACCCCCAUCCUCUUUUCCUACCUCUCUGUUUGGUUUAGAAAUUGCUCAAUAAGUCAUUUGGGGUUUGGCAUCCUGCCCAGCCACUUCCCAAACAUGAAUGGAAUUCUCGGGUGCCAA", "RBNS enrichment (R)": 0.674}
{"Sequence": "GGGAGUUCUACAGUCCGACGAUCCACACCUCAUCUCACCCAAGAGUAUUUCCCAAGUCUGCAGCUUCCGUCAGCGAUUGUUGUGUUACCUUCUGGUGUUCCCUCACUGAUUGUGGACAAACCUGGCAGUUGAGUGGAAUUCUCGGGUGCCAA", "RBNS enrichment (R)": 0.282}
{"Sequence": "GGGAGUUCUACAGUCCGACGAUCCUUUAGAGGUGGUGGCAGCGGCAGCAGGUCAGAGCCACUUCUGGCGGUUUCCCUCCCCUUUUUAGUGCCCAUAGUUUUUGGAUCCUCCCUUGAGUUUUACCAGCACAAGCUGGAAUUCUCGGGUGCCAA", "RBNS enrichment (R)": 0.456}
{"Sequence": "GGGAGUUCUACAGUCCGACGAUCCCAGCUCCCUGCAGCCCCUCCCCCUACGUGCAACUGACACUCCUACCCAGUCAAAGCUCUGCCUUUCAGCCCACGUCAUACGUAGUGUCCAUCUUGUGAAGCCCUGUUGUUGGAAUUCUCGGGUGCCAA", "RBNS enrichment (R)": 0.941}
{"Sequence": "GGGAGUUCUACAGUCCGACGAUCAAAGGGUGGCAUUUGAUUAAGUGACCAGGGUUCUUUGGAGUGAGUAGGAACAGCAUUUCUUACAACCGCCCCAGGACCUGAUUUGGCAAGACUGACUAGCUCUCUUUAGCUGGAAUUCUCGGGUGCCAA", "RBNS enrichment (R)": 0.38}
{"Sequence": "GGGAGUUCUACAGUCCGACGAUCUUUCUUCAGAGUCAACCUUGGCCCUGAGAAGUAUGUCCUCCUGGUGUGCUCAGGCUCAACGGCAGUCUGGUGGCUGAAGGCACUUGGCCUCCUAAACCAAGCAGAAUUUUUGGAAUUCUCGGGUGCCAA", "RBNS enrichment (R)": 0.27}
{"Sequence": "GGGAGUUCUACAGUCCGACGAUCGCUGUGUGCCAGCCUGAGACGGUUCCUGCCUGUCUUGGGGGUUGGUGGAGGGUGGAGGCAGUUCUGCCAGCCGUGGCAGGGCUGCUAUGGGGCAUCCAGGGCUGUGGGGGUGGAAUUCUCGGGUGCCAA", "RBNS enrichment (R)": 0.582}
{"data": "Set 2", "target": "Interferon regulatory factor 3, full length, phosphomimetic (IRF3, Homo sapiens, UniProt Q14653, residues 1-427, S386D/S396D/S398D/S402D/T404D/S405D)", "method": "protein-binding microarray", "form": "double-stranded DNA, one strand shown", "medium": "in vitro", "concentration": "2540 nM top", "notes": "60-bp whole probe", "together with": "salmon DNA 0.4 mg/ml", "reference": "random background probes", "reading": "higher = stronger binding", "all sequences stand within": "GCCTAGCAC … GTCTTGATTCGCTTGACGCTGCTG", "Target sequence (chain)": "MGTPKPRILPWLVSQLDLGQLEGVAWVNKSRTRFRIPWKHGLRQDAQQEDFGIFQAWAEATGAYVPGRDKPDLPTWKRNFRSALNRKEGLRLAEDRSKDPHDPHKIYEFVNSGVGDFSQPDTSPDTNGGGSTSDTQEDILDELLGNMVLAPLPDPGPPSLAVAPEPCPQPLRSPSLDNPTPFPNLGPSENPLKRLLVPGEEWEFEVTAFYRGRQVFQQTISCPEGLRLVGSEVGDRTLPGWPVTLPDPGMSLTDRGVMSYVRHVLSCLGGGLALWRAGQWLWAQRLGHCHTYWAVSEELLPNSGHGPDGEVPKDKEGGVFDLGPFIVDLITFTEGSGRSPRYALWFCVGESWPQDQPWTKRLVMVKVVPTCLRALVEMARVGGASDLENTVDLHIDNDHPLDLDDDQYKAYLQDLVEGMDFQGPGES"}
{"Sequence": "CTATGTCTGTTTTTGCTTTCGTGCTAG", "fitted relative affinity": "1.29 z-score"}
{"Sequence": "TGAAAATTAGTGTTTGCCCTAGTGCTA", "fitted relative affinity": "-0.181 z-score"}
{"Sequence": "GACGGTATCGCACTGGGGACGTGCTAG", "fitted relative affinity": "1.01 z-score"}
{"Sequence": "TTAGAACTGAGACTGGATTGGTGCTAG", "fitted relative affinity": "-0.319 z-score"}
{"Sequence": "GCCGATCTCAGACTGGAGACGTGCTAG", "fitted relative affinity": "1.76 z-score"}
{"data": "Set 3", "target": "Centromere-binding protein 1, full length, N-terminal tag (CBF1, Saccharomyces cerevisiae, UniProt P17106, residues 1-351)", "method": "protein-binding microarray", "form": "double-stranded DNA, one strand shown", "medium": "in vitro", "concentration": "0.8 µM", "notes": "whole 60-bp probe, no competitor", "reading": "higher = stronger binding", "UniProt P17106, sequence (whole entry, looked up)": "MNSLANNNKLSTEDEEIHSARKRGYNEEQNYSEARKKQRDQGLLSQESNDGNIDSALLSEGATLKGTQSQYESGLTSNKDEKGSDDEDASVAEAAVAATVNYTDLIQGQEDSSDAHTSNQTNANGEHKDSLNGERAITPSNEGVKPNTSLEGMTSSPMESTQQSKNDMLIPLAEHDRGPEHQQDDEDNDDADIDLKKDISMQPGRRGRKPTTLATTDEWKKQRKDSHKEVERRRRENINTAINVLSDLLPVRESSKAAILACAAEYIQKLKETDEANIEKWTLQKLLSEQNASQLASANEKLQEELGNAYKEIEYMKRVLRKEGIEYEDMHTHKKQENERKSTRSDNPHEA"}
{"Sequence": "CTAGGAAAAAGATACCACGTTCTTCTGAACATGTTCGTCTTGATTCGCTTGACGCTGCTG", "fluorescence intensity": "655 a.u."}
{"Sequence": "GAAAATATCAACGGCCACACCATAGATTCCTTTTAGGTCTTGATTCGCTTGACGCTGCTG", "fluorescence intensity": "488 a.u."}
{"Sequence": "CTATCTTCCAGCTTAAACGTGCTTCGTCACTCGTTCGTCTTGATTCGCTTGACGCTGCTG", "fluorescence intensity": "607 a.u."}
{"Sequence": "CTATCTCCATACGGTGACATGGCGTTATTTACATTCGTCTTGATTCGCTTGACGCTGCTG", "fluorescence intensity": "537 a.u."}
{"Sequence": "CTATGCTCAAATTAGCATGTGAAAAAAAGATAATTCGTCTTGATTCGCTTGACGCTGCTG", "fluorescence intensity": "697 a.u."}
{"Sequence": "GAATGTCTTGAAATGCGCGTGTCCGTAAAATATTAGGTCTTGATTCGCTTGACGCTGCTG", "fluorescence intensity": "678 a.u."}
{"Sequence": "GAAGAAAATCTAAATGTCGTGATGTATAACTTGTAGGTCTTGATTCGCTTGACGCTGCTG", "fluorescence intensity": "702 a.u."}
{"Sequence": "GAAACCAATGAGTCAAACGTGAGCGATGCTCCCTAGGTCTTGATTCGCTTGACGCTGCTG", "fluorescence intensity": "510 a.u."}
{"Sequence": "GAAACATGCCTATGTTTCGTGCTTTTGCCGATTTAGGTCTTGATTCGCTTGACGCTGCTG", "fluorescence intensity": "469 a.u."}
{"data": "Further values, each from its own experiment"}
{"Substance": "PhoQ, residues 284 288 289 292 302 303 SSYNSA", "target": "PhoP, residues 12 14 15 18 19 QYCSL (Escherichia coli, UniProt P23836)", "test": "Sort-seq, refers to: YFP reporter", "test system": "E. coli", "setting": "PhoQ-PhoP variant library, together with: 10 µM Mg2+", "how to read": "reference: high Mg2+ state, higher = stronger signaling", "measurement": "fold induction", "value": 6.81}
